Assay results pooled from the literature.
Each numbered part is a random draw from the data of one study; scales do not carry over between parts.

Series 1
Target: Sal-like protein 4, full length isoform A (SALL4, Homo sapiens, UniProt Q9UJQ4, residues 1-1053)
UniProt Q9UJQ4, sequence (whole entry, looked up): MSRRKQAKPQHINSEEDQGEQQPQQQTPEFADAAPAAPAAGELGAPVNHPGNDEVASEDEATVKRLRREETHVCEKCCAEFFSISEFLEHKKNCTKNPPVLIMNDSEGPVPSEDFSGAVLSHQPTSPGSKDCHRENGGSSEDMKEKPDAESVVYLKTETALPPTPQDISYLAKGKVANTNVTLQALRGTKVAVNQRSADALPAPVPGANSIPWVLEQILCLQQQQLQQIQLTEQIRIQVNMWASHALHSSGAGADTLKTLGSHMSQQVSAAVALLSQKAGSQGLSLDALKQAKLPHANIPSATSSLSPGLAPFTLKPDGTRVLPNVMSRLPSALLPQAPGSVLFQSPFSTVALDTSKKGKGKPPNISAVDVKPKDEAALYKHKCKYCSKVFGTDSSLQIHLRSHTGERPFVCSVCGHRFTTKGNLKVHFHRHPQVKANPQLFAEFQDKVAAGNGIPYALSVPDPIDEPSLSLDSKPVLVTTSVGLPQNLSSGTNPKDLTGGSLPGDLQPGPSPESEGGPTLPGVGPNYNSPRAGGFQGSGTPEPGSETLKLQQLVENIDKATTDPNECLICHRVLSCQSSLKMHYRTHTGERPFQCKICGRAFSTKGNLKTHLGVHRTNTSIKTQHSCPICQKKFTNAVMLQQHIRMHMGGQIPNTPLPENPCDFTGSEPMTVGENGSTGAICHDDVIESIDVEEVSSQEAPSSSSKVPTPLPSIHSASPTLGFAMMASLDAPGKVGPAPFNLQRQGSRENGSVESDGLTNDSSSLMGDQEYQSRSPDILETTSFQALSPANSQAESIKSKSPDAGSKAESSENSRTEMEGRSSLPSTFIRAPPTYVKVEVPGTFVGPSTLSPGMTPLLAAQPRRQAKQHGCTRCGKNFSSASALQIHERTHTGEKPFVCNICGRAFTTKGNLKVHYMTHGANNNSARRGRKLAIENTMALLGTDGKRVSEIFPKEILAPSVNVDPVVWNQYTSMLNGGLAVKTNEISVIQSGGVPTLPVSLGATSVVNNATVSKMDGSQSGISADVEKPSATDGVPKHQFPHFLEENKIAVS
Method: universal PBM
Molecule type: double-stranded DNA, one strand shown
Sample: in vitro
Tested at: 600 nM
Notes: 8-mer, flanks averaged, mean of replicates
Reading: higher = stronger binding
`AGGAAACC` gave an E-score of -0.197.
`ACTGGTCT` has an E-score of -0.151.
`CGTCGACG` has an E-score of -0.357.
`TACCCCCA` gave an E-score of 0.00152.
The E-score of `CACCTACG` is reported as -0.178.
For `ACAGCAGA`, the E-score was -0.0026.
`CCCAAGGA` has an E-score of -0.225.
With `AGGATCGA` the E-score was -0.0154.
`CGCCTGTC` has an E-score of -0.336.
With `AATGAGGT` the E-score was 0.0915.
`ACAATCGA` has an E-score of 0.0837.
The E-score of `CGAGTTGA` is reported as -0.109.
`ACTCCGGG` gave an E-score of -0.259.
With `CCGTGACC` the E-score was -0.355.
`CGGGAATC` has an E-score of -0.204.
`AGCTCCTG` gave an E-score of -0.255.
The E-score of `CATAGCGG` is reported as -0.159.
With `AGGTAGTC` the E-score was -0.0902.
The E-score of `GAGCACGA` is reported as -0.0591.
With `ACTAACTG` the E-score was -0.0833.
The E-score of `ACTAAGCG` is reported as -0.161.
`AGCCTATC` gave an E-score of -0.0479.
For `CGATATAC`, the E-score was 0.0599.
The E-score of `ATCGCATG` is reported as 0.0341.
`TGCGGCAA` gave an E-score of -0.0893.

Series 2
Target: RNA binding protein fox-1 homolog 2, RRM domain, GST-SBP tag (RBFOX2, Homo sapiens, UniProt O43251-10, residues 100-194)
Method: RNA Bind-n-Seq
Molecule type: RNA
Sample: in vitro
Tested at: 365 nM
Notes: natural RNA segment, single round, ends assumed
Baseline: no-protein control
Reading: higher = stronger binding
Construct (chain): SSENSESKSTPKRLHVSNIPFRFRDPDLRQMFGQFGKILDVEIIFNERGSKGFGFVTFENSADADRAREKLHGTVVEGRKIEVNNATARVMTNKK
`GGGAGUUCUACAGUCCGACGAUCGUUCAGAGAUGGCAAUGGAUGAUGGGAAGAUAAGCUCAGAAGGGAAAGGAACCCCUUUGAGAGGUCGCGAGGCCCAUCUUUACUAGGACCCUUCCAUCUCUCCUGGGACAUGGAAUUCUCGGGUGCCAA` — result for “RBNS enrichment (R)”: 0.399.
Under “RBNS enrichment (R)”, `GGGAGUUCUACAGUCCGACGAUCCAAGGUGGGGGCUGUGGCCAUGUGUGGCCGUGAUGUCGAUGAUACUCGUUUUCCCUGAUCCGUGGUGUUGCAGUCCGUUGUCACCAGCCUUGUUUCUAGUGUGUAUAUAUUGGAAUUCUCGGGUGCCAA` is recorded as 0.458.
`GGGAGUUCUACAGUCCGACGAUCCGGGUGAAGGGCUCAGCCUUCUCACCCAUCCCUCAUUGCUGGAACCAAGUGCCAAGACUACCACAACCAUCAGCUACAACUGCAACCUGAGAAAACAGACAUCACCCUCUUGGAAUUCUCGGGUGCCAA` — result for “RBNS enrichment (R)”: 0.328.
`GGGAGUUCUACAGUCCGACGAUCCGGGCACUUGUUGCAUUGCCUGGCACCCAAUAUUCAGGGUCCAUGACUAAGACUGGUCUUCUCAGAUGCCCUGCUUAAAUCAGGGGCACUUCAGGCUCCACAGGCGUCAUUGGAAUUCUCGGGUGCCAA` — result for “RBNS enrichment (R)”: 0.421.
For `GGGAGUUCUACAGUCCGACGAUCGAAAAGGGAGUAAAGGAAAAAAGAGGUCAACCACUGUUUCUGAUAAUGUACUUGAGUUUCAUUGUUCUUUUAGUUUGUAUUCUUAUAAAAAAUGUUUACACUCUGCAGAUUGGAAUUCUCGGGUGCCAA`, “RBNS enrichment (R)” read 0.412.
For `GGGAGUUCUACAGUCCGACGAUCAUGAAGGAACGAGACAAGCAAAACAGAAAAGCCGAGAAGGAACAUGCAUGACUAAAAAGGCUUGAAGUUGCUUGUGAGCAAGAAGCUUUUUAUGCUGCUUUCUUACAUAGUGGAAUUCUCGGGUGCCAA`, “RBNS enrichment (R)” read 4.98.
`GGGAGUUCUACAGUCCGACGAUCCGACCGGCCCUGCCCCUCUUCCCGGGAUCACUUAAUGAACCACGUGUUUUGACAUCAUGUAAACCUAAGCACGUAGAGAUGAUUCGGAUUUGACAAAAUAACAUUUGAGUUGGAAUUCUCGGGUGCCAA` — result for “RBNS enrichment (R)”: 1.1.
Under “RBNS enrichment (R)”, `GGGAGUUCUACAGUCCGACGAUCUCUCCUUUGGUAGCAGCUCCCUGCCUCCAGGGCUUCCGCCACCAGCGUCUCUGCUGUGUUGCGCAGUGCAGUGGGGUGCAAGGGCUUUGUUUCUGCCUGCCUGAAAGAGAUGGAAUUCUCGGGUGCCAA` is recorded as 0.274.

Series 3
Target: Phosphate system positive regulatory protein PHO4, full length, GST-tagged (PHO4, Saccharomyces cerevisiae, UniProt P07270, residues 1-312)
Method: competition protein-binding microarray
Molecule type: double-stranded DNA, one strand shown
Sample: in vitro
Tested at: 2 µM
Notes: whole 60-bp probe, lowest competitor level
With: Cbf1 competitor, 0.05 µM
Reading: higher = stronger binding
Construct (chain): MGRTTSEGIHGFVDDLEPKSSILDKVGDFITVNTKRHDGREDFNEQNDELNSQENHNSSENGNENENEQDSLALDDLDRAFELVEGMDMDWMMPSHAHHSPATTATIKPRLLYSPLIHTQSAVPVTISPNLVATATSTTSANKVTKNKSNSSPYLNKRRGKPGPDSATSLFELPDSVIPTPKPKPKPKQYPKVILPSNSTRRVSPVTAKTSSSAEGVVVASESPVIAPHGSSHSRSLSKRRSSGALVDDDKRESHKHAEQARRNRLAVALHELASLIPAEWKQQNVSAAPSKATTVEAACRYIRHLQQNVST
The fluorescence intensity of `AAAACGAGCCTCCATCACGTGCAAAAAAGAAATAGTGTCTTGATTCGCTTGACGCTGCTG` is reported as 16600 a.u.
The fluorescence intensity of `CTAACGAAGGTTTGCCGAGTGGGTGACAAGCCAAGTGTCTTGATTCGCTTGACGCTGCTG` is reported as 3490 a.u.
For `GCGGCTAAATTTAAGGGCGTGATGGCAGAACTCGGCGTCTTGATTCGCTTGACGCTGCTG`, the fluorescence intensity was 5010 a.u.
`TCCAGTGAAGCGCCCCTCGTGCTTTGGAAATCCCTGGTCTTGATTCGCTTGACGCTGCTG` has a fluorescence intensity of 12900 a.u.
`CGGGGTTAAGTTTGTCACCCTACTTGCTTGCAGCAGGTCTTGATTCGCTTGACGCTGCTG` gave a fluorescence intensity of 3330 a.u.
With `GTCTTGTCTCATTGGTAAGTGGGTGTCCCCACTTCAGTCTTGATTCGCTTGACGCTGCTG` the fluorescence intensity was 5050 a.u.
For `AAATTACTAAGTTGGGTGGTGGGTGACGCCGTATGAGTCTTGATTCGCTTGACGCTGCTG`, the fluorescence intensity was 5050 a.u.
With `CAGCGCGATCAGTTGCACATGGCGCGACTGCAAACCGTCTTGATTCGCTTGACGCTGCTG` the fluorescence intensity was 9030 a.u.
`AGATAGAAGATCAAATCCGTGCCAGAACCGCCCTGCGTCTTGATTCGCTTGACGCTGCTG` has a fluorescence intensity of 4610 a.u.
With `AAATACAAAGACAAGCATGTGCTTTCGGCAAAAGTGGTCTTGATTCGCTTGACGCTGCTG` the fluorescence intensity was 11700 a.u.
For `CAATTGTTGCTCTGGCACGTGAGATATATGGTAAGAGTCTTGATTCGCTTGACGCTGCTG`, the fluorescence intensity was 15600 a.u.
With `CCTCTTTTTCACCCGATTATTTTCATTTATTAGTAAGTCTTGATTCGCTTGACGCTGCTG` the fluorescence intensity was 4490 a.u.
The fluorescence intensity of `TTATTAGGTTCGAGTCACGTGATGGGTCCTTTTCTGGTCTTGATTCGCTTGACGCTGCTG` is reported as 12500 a.u.
`CGGGGTTAAGTTTGTTTCGTGGGTGGCTTGCAGCAGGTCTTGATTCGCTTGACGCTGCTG` has a fluorescence intensity of 4730 a.u.
With `CATACCCAACCTTTTCACGTGACCTAAGATATTTGTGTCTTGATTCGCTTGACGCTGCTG` the fluorescence intensity was 12600 a.u.
For `TGCGCAACAACTTTTCACGTGCGGTTATGTCTAGAAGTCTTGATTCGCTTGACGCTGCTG`, the fluorescence intensity was 14800 a.u.

Series 4
Target: Histone acetyltransferase KAT6A, both winged helices, GST fusion (KAT6A, Homo sapiens, UniProt Q92794, residues 1-181)
Method: protein binding microarray
Molecule type: double-stranded DNA, one strand shown
Sample: in vitro
Tested at: not given
Notes: 8-mer, flanks averaged, mean of 2 arrays, mostly near background
Baseline: not given
Reading: higher = stronger binding
Target sequence (chain): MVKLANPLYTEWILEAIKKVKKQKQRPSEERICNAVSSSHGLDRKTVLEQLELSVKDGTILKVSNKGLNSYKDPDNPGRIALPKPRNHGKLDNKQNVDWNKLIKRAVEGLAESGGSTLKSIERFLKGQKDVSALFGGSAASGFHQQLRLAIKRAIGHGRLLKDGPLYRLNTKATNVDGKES
The E-score of `GTTGCTAA` is reported as -0.0115.
The E-score of `AGTTAGGC` is reported as -0.116.
For `GCAACTCC`, the E-score was 0.0177.
The E-score of `ATACTTAG` is reported as -0.125.
`TGGCCCAA` gave an E-score of -0.164.
`ACCCTGAC` has an E-score of -0.163.
With `ACGAACCG` the E-score was 0.139.
For `ATATTCAC`, the E-score was -0.212.
With `CAACGCGC` the E-score was 0.31.
`AGGACTTA` has an E-score of -0.224.
The E-score of `AGGGCTCG` is reported as -0.0204.
With `ATGTGATC` the E-score was 0.0582.
`CCGTTGAG` gave an E-score of 0.105.
For `CCTTATCG`, the E-score was -0.07.
The E-score of `CTCATAGA` is reported as -0.125.
The E-score of `CGCAATGA` is reported as 0.0258.
For `CCAATTCG`, the E-score was -0.116.
With `CCCGGAGG` the E-score was -0.0463.
`AACACACC` gave an E-score of 0.031.
For `ACAGAGAG`, the E-score was -0.237.
`AAAATTTC` gave an E-score of -0.0207.
The E-score of `CTATTGGC` is reported as -0.119.
With `GAGTGATC` the E-score was -0.0937.
For `GTTTAAGA`, the E-score was 0.00986.
For `ATTTTGCG`, the E-score was 0.027.

Repeated from above (series 4):
For `CCTTATCG`, the E-score was -0.07.
The E-score of `CTCATAGA` is reported as -0.125.
The E-score of `CGCAATGA` is reported as 0.0258.
For `CCAATTCG`, the E-score was -0.116.
With `CCCGGAGG` the E-score was -0.0463.
`AACACACC` gave an E-score of 0.031.
For `ACAGAGAG`, the E-score was -0.237.
`AAAATTTC` gave an E-score of -0.0207.
The E-score of `CTATTGGC` is reported as -0.119.
With `GAGTGATC` the E-score was -0.0937.
For `GTTTAAGA`, the E-score was 0.00986.
For `ATTTTGCG`, the E-score was 0.027.
